Published values gathered from unrelated publications.
Protocols differ between the studies behind these lines.

O=C1O[C@H]([C@@H](O)CO)C(O)=C1O — inhibition (DPPH scavenging, absorbance; 90 µg/mL): 57%
COC(=O)c1ccc(O)cc1 — inhibition (Helicobacter pylori; microbial growth, broth dilution; 1.95 µg/mL): 100%
Cc1cccc(N(O)N=Nc2ccc(S(=O)(=O)Nc3nccs3)cc2)c1 — inhibition (DPPH scavenging, absorbance; 60 µg/mL): 27.6%
CC(=NNC(=O)c1ccncc1)c1ccc(Nc2nnc(-c3ccc(Cl)cc3)c3ccccc23)cc1 — cell death (HepG2; cell growth or viability, MTT; 0.625 µM): 92.2%
CCN(O)N=Nc1ccc(S(=O)(=O)Nc2onc(C)c2C)cc1 — inhibition (DPPH scavenging, absorbance; 300 µg/mL): 28.1%
O=C(Nc1ccc(Oc2nnc(-c3ccc(Cl)cc3)c3ccccc23)cc1)c1cccc([N+](=O)[O-])c1 — viability (HepG2; cell growth or viability, MTT; 1.25 µM, 24 h): 51.8%
Cc1cccc(N(O)N=Nc2ccc(S(=O)(=O)Nc3onc(C)c3C)cc2)c1 — inhibition (DPPH scavenging, absorbance; 240 µg/mL): 30.2%
COc1cc(-c2nc3ccccc3c(=O)n2Nc2ccc([N+](=O)[O-])cc2[N+](=O)[O-])ccc1OCc1cn(CC(=O)Nc2cccc(C)c2C)nn1 — inhibition (DPPH scavenging, absorbance; 100 µM): 16.6%
COc1ccc(-c2cc(=O)c3c(O)cc(O[C@@H]4O[C@H](CO)[C@@H](O)[C@H](O)[C@H]4O)cc3o2)cc1O — inhibition (Helicobacter pylori; microbial growth, broth dilution; 15.63 µg/mL): 100%
CC(=NNC(=O)c1ccccc1O)c1ccc(Nc2nnc(-c3ccc(Cl)cc3)c3ccccc23)cc1 — viability (HepG2; cell growth or viability, MTT; 0.625 µM, 24 h): 99.9%
Cc1noc(NS(=O)(=O)c2ccc(N=NN(C)O)cc2)c1C — inhibition (DPPH scavenging, absorbance; 60 µg/mL): 11.1%
CC(=NNC(=O)c1cccnc1)c1ccc(Nc2nnc(-c3ccc(Cl)cc3)c3ccccc23)cc1 — viability (HepG2; cell growth or viability, MTT; 1.25 µM, 24 h): 11.9%
Cc1cc(C)c(C(N)=O)c(SCC(=O)c2ccc(F)cc2)n1 — EC50 (Leishmania infantum; parasite growth; mouse Macrophage; intracellular, amastigote): > 64 µM
CC(=NNC(=O)c1ccccc1)c1ccc(Nc2nnc(-c3ccc(Cl)cc3)c3ccccc23)cc1 — cell death (HepG2; cell growth or viability, MTT; 1.25 µM): 86.6%
Cc1cc(NS(=O)(=O)c2ccc(N=NN(C)O)cc2)no1 — inhibition (DPPH scavenging, absorbance; 240 µg/mL): 40.6%
O=C(O)c1ccc(O)cc1 — inhibition (Helicobacter pylori; microbial growth, broth dilution; 15.63 µg/mL): 100%
CC(=NNC(=O)c1ccc(N)cc1)c1ccc(Nc2nnc(-c3ccc(Cl)cc3)c3ccccc23)cc1 — cell death (HepG2; cell growth or viability, MTT; 10 µM): 91.6%
O=C1O[C@H]([C@@H](O)CO)C(O)=C1O — inhibition (DPPH scavenging; 125 µg/mL): 60.5%
COc1cc(-c2nc3ccccc3c(=O)n2Nc2ccc([N+](=O)[O-])cc2[N+](=O)[O-])ccc1OCc1cn(CC(=O)Nc2ccc(Cl)cc2Cl)nn1 — inhibition (DPPH scavenging, absorbance; 100 µM): 16.2%
Cc1cc(C)c(C#N)c(SCC(=O)c2ccc(F)cc2)n1 — EC50 (Leishmania infantum; parasite growth; mouse Macrophage; intracellular, amastigote): 61.9 µM
CCCCn1cnc2ccc(-c3ccc(NC(=O)NCC)nc3)cc2c1=O — IC50 (NCI-H1975; cell growth or viability, CCK-8; 72 h): 7.43 µM
O=C(Nc1ccccc1)Nc1ccc(Oc2nnc(-c3ccc(Cl)cc3)c3ccccc23)cc1 — viability (HepG2; cell growth or viability, MTT; 1.25 µM, 24 h): 6.03%
Cc1ccc(N(O)N=Nc2ccc(S(=O)(=O)Nc3onc(C)c3C)cc2)cc1 — inhibition (DPPH scavenging, absorbance; 20 µg/mL): 3.98%

A few entries again:
CC(=NNC(=O)c1ccccc1)c1ccc(Nc2nnc(-c3ccc(Cl)cc3)c3ccccc23)cc1 — cell death (HepG2; cell growth or viability, MTT; 1.25 µM): 86.6%
Cc1cc(NS(=O)(=O)c2ccc(N=NN(C)O)cc2)no1 — inhibition (DPPH scavenging, absorbance; 240 µg/mL): 40.6%
